Published values from different studies.
Every numbered part comes from another study and shows a few of its results, in no order. Substitutions count along the parent as printed.

Series 1 — target: CCNA1, cyclin fold, Cln2 fusion (human); technique: yeast growth competition, sequencing; sample: yeast; setting: weak parent motif; relative to: not given; direction: higher = stronger binding; endpoint: normalised enrichment score
Starting sequence: ORC1 docking peptide (human); PRARKRLELGNLG; partner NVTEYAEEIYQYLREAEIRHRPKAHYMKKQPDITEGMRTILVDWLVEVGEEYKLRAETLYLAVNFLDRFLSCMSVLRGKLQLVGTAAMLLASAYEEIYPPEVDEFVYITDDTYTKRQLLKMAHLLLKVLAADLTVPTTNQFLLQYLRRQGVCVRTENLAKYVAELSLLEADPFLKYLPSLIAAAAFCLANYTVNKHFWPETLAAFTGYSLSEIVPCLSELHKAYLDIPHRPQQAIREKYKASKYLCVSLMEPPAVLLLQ
P1W: 0.272
A3N: 0.579
P1D: 0.439
R6P: 0.183
A3T: 0.541
R6C: 0.271
R6Y: 0.402
G13M: 0.342

Series 2 — target: CREBRF, bZIP domain (human); technique: DHFR protein complementation; sample: yeast; relative to: wild-type JUN-FOS pair; direction: higher = stronger binding; endpoint: binding fitness
Setting: single substitutions, most at no-binding floor
Starting sequence: JUN, bZIP domain (human); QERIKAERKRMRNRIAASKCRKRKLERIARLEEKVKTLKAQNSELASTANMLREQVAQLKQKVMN; partner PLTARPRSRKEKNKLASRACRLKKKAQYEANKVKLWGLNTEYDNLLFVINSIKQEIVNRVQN
A57P: -1.52 natural log
S43H: -1.53 natural log
L31C: -1.52 natural log
A57N: -1.67 natural log
V56S: -1.52 natural log
T37W: -1.33 natural log
Q55Y: -1.32 natural log
M51K: -1.38 natural log
E32H: -1.58 natural log

Series 3 — technique: RNA Bind-n-Seq; molecule type: RNA; sample: in vitro; tested at: 200 nM; setting: whole 134-nt RNA, ends assumed; together with: 150 mM LiCl; relative to: input library; direction: higher = stronger binding; endpoint: log2 enrichment; all molecules: 7-deaza-guanosine replaces G
Target: Ras GTPase-activating protein-binding protein 1, full length (G3BP1, Homo sapiens, UniProt Q13283)
Chain of UniProt Q13283 (whole entry, looked up): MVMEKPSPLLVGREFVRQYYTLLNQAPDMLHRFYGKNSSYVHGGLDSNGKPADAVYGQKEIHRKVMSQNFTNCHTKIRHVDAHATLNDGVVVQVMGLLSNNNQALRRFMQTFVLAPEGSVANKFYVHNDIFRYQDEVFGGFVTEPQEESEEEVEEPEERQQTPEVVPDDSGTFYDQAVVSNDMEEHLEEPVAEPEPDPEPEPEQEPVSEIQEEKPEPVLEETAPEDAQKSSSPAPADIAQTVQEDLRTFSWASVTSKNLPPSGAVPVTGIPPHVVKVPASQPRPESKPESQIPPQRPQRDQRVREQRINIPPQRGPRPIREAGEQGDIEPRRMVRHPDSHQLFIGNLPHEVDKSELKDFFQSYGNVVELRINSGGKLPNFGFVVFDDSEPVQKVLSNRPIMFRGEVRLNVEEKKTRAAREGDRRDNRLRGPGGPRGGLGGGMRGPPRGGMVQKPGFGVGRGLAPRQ
Shared flanks, not repeated: GGGAGUUCUACAGUCCGACGAUC … UGGAAUUCUCGGGUGUCAAGG
CACAGACAACACGCACACACACAGACACAGAGGGAAGGGGUUGGGAUGGGGACAGGGUGCACAGCAGGGCGGGGUAGGACCCCAGCCCCU: -0.235
AAGUCCUGUGCUACACAUCGUAUGUACCGAAUCGGGCCCCGGCCCCGGGGCCCCGGAAAGUAUUAUGUUACGCCGUUCGGAUCUGCACUU: -2.65
AGUCCUGUGCUACACAUCGUAUGUACCGAAUCGGGAAAAAGGGAAAGGGAAAAAGGGAAAGUAUUAUGUUACGCCGUUCGGAUCUGCACU: -0.551
UGGGAGGUGGAUUUUGUUUAUUUUUUUAGCUCAUUUCCAGGGGUGUGAAUUUUUUUUUAAUAUGUGUCAUGAAUAAAGUUGUUUUUGAAA: -0.599
UUCAAAACAGAAUCCUUCCAGUCCUCUUCAGCGUUUAAUUCCAGGCUCAAACUUGGACAGUGAACCCAGAAUUCAAACAGAUAUACUAAA: 1.29
CUUUGGUUGACAGGAAGUUCCUUUUCCAGGCAGGUCCCGUUGCCACCUCCUGCUCACUCAGUCCCGGGCUCUGCCGAGUGGUCCUGGGAA: 0.311
UCCUGUGCUACACAUCGUAUGUACCGAAUCGGGAAAAAGGGUUUUUUUGGGAAAAAGGGAAAGUAUUAUGUUACGCCGUUCGGAUCUGCA: -1.14
CCUGUGCUACACAUCGUAUGUACCGAAUCGGCCCCCCGGGCCCCCCGGGGCCCCCCGGGGAAAGUAUUAUGUUACGCCGUUCGGAUCUGC: -2.08
UGGGAGGUGGAUUUUGUUUAUUUUUUUAGCUCAUUUCCAGGGGUGGGAAUUUUUUUUUGAUAUGUGUCAUGAAUAAAGUUGUUUUUGAAA: -0.688

Mixed results
PhoQ, residues 284 288 289 292 302 303 AQGLTV — fold induction (PhoP, residues 12 14 15 18 19 SQCLL (Escherichia coli, UniProt P23836); Sort-seq, item: YFP reporter; E. coli; PhoQ-PhoP variant library, together with: 10 µM Mg2+; relative to: high Mg2+ state, higher = stronger signaling): 2.22

Some of these lines once more (series 2):
A57N: -1.67 natural log
V56S: -1.52 natural log
T37W: -1.33 natural log
Q55Y: -1.32 natural log
